Assay results collected from several papers.
Numbered parts are unrelated; each lists some results of a single study.

Study 1
Target: Prothrombin, mature alpha-thrombin (F2, Homo sapiens, UniProt P00734)
Method: aptamer microarray, sandwich
Molecule type: DNA with 2'F-ANA
Matrix: in vitro
Tested at: 200 nM
Setting: whole 15-mer aptamer, many near background
With: Cy3 exosite-II aptamer, 400 nM
Reading: higher = stronger binding
Strand: GGTTGGTGTGGTTGG
Modification | mean fluorescence intensity
2'F-ANA at 2 5 6 8 11 13 14 15 | 46.7 a.u.
2'F-ANA at 1 2 3 4 7 9 13 15 | 104 a.u.
2'F-ANA at 2 3 7 11 15 | 850 a.u.
2'F-ANA at 8 9 10 11 12 15 | 172 a.u.
2'F-ANA at 1 2 3 5 11 12 13 14 15 | 49 a.u.
2'F-ANA at 1 2 4 11 12 13 14 | 53.2 a.u.
2'F-ANA at 1 2 4 5 9 10 12 | 45.8 a.u.

Study 2
Target: Interferon regulatory factor 7, full length, phosphomimetic (IRF7, Homo sapiens, UniProt Q92985, residues 1-503, S471D/S472D/S475D/S476D/S477D/S483D/S484D/S487D)
Method: protein-binding microarray
Molecule type: double-stranded DNA, one strand shown
Matrix: in vitro
Tested at: 2200 nM top
Setting: 60-bp whole probe
With: salmon DNA 0.4 mg/ml
Relative to: random background probes
Reading: higher = stronger binding
Constant ends, left off below: GCCTAGCAC … GTGCTAGGTCTTGATTCGCTTGACGCTGCTG
Target sequence (chain): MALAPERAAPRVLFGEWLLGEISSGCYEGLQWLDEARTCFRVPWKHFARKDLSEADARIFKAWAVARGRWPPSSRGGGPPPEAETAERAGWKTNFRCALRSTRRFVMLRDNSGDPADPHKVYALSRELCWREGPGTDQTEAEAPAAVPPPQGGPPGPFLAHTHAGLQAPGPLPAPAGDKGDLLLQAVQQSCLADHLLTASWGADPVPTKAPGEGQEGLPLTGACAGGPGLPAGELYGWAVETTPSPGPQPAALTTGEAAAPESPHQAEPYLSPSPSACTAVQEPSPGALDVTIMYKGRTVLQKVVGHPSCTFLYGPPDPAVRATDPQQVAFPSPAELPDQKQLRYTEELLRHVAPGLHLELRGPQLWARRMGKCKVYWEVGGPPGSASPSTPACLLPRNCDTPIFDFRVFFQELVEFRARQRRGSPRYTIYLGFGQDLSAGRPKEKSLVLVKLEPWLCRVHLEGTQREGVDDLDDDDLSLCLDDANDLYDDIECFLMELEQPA
Strand | fitted relative affinity [z-score]
GAAGATGTGTATATGACAAT | -0.0302
GACGATCTCAGTGTCGAGAC | 0.0999
GACAAACTGAGTCTCGAGAC | 0.00384
TCAGATATCTTTTTCCTACT | 1.08
GACGGACTGCTTATACTGAC | 0.24

Study 3
Target: RING finger protein unkempt homolog, zinc fingers 1-6, GST-SBP tag (UNK, Homo sapiens, UniProt Q9C0B0, residues 30-357)
Method: RNA Bind-n-Seq
Molecule type: RNA
Matrix: in vitro
Tested at: not given
Setting: RNA with constant flanks, ends assumed
Relative to: input RNA pool
Reading: higher = stronger binding
Constant ends, left off below: GGGAGUUCUACAGUCCGACGAUC … CAACAGAGGAUUGAGCAUCA
Target sequence (chain): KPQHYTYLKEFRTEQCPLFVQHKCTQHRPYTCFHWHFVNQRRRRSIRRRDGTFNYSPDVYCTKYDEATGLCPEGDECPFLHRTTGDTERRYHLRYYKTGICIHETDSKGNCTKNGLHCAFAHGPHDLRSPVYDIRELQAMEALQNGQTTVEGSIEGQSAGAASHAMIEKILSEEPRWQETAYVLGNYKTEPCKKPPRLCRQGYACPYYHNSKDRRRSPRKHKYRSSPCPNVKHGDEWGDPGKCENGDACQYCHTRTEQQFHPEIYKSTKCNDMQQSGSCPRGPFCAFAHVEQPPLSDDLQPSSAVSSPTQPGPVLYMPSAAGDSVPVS
Strand | bound/input enrichment [ratio]
GUUAUUCUUGUAUGUAAUCCUGUGGCUUAACGACUUUUCCCUCCUCACCCUGCACUUCUCCCGCUCUCUGUUCCCUCUCCAUGGCUCUGACUCUUCUUAUUCUUGUGCUAAGACUUGUAG | 0.966
AUAAUAAAAGCUUCCAGCAAAGAUGCCAUCAGGCUUUUGGAUUCCGUGCCUCCCACUGCCAUCCGUCACUUCAAACAAUCAGCUGAGAAGCUGAUAGAGGAGAAGGGAGCUGUGGAAGCU | 0.0949
AUAACUACUCCUGCCAUGGCGGUCAGUCAUAUCAUGUUGGAAUCAUAUAAAAAGUAUAUUUCCGUGUCUUUGAUAUUACUUGGCAAAGUACAACAGCUACCAAAAUAUACAUCUCAAAUU | 0.125
ACUGUGGCAUAUACUGAAAAGAAAAUGACCAGUGGCAAGAUCAAGAAAUUUAUUCAGGACCGCAUUUUUGGUCUCUGUCCUCAUAUGACGGAAGAUAAUAAAGAUUUGAUACAAGGCAAG | 0.31
AAACCUUCAACUGUAGAAGUUCUAGAAAGUAUAGAUAAGGAAAUUCAAGCAUUGGAAGAAUUCCGGGAAAAAAAUCAGAGAUUACAAAAAUUAUGGGUUGGAAGAUUAAUUCUGUAUUCC | 3.71
GUCAGCCAGUCACUACAGCAUUACCUGGAGCUGGGACGGCAAGAACUUUUCAAGAUUCUACACCGUAUUUUGUUAAAUGGCGAAACUCGUGAAGCGGCUCUCAGCUACAUGGCGGCCCUU | 0.298
GGUGUACGCGGCGAUUUCAACUCUCGAAUGGGAGGAGGCAGUAUAGAGGUAUCUGUGCCCCGGUUUGCUGUGGGGAUUGUAAUAGGAAGAAACGGGGAAAUGAUCAAAAAGAUCCAGAAU | 1.07

Other studies, line by line
Substance | target | test | test system | setting | scale | quantity | result
PhoQ, residues 284 288 289 292 302 303 ALASRC | PhoP, residues 12 14 15 18 19 NNFVT (Escherichia coli, UniProt P23836) | Sort-seq, refers to: YFP reporter | E. coli | PhoQ-PhoP variant library, with: 10 µM Mg2+ | relative to: high Mg2+ state, higher = stronger signaling | fold induction | 9.6

For quick reference, copied from above (study 3):
Strand | bound/input enrichment [ratio]
GUCAGCCAGUCACUACAGCAUUACCUGGAGCUGGGACGGCAAGAACUUUUCAAGAUUCUACACCGUAUUUUGUUAAAUGGCGAAACUCGUGAAGCGGCUCUCAGCUACAUGGCGGCCCUU | 0.298
GUUAUUCUUGUAUGUAAUCCUGUGGCUUAACGACUUUUCCCUCCUCACCCUGCACUUCUCCCGCUCUCUGUUCCCUCUCCAUGGCUCUGACUCUUCUUAUUCUUGUGCUAAGACUUGUAG | 0.966
GGUGUACGCGGCGAUUUCAACUCUCGAAUGGGAGGAGGCAGUAUAGAGGUAUCUGUGCCCCGGUUUGCUGUGGGGAUUGUAAUAGGAAGAAACGGGGAAAUGAUCAAAAAGAUCCAGAAU | 1.07
